Published values of several laboratories.
Several values in a cell are separate wells, animals, samples, runs or records. ± gives the spread as reported.

Amino acid sequences for entries named in this document (tags omitted).
UniProt Q9H3N8, whole entry: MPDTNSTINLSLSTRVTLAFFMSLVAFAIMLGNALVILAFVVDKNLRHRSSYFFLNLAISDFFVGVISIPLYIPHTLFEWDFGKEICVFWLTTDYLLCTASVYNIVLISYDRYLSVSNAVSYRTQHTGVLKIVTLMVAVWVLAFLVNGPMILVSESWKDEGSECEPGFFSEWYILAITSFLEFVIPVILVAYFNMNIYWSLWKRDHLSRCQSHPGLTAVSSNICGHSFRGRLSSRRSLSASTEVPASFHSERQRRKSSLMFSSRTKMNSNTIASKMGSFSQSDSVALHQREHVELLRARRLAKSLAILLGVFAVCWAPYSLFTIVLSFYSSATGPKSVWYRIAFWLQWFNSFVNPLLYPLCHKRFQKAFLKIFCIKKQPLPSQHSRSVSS

Compound	tested on	assay	system	setting	scale	quantity	result
O=C(O)C(O)=CC(=O)C1(Cc2ccc(Cl)cc2)CCN(C(=O)OCc2ccccc2)CC1	VeroE6-TMPRSS2	–	–	–	–	CC50	> 50 µM
NC[C@@H](NC[C@@H]1CCCN1C[C@@H](CO)NC[C@@H](NCCC1CC2CCC1C2)c1ccccc1)c1ccccc1 (stereo partly drawn)	Klebsiella pneumoniae	bacterial growth	–	24 µM, fold shift of IC50, with: amikacin	–	potentiation of amikacin	3.3 fold
COc1cc2c(N(C)C)nc(NCCCN(C)C)nc2cc1OCCCCCN	mouse primary fibroblasts	cytotoxicity, CCK-8	–	24 h	–	CC50	45.8 µM
Cc1ccc2nc(-c3ccc4nc(-c5ccc(NC(=O)c6cccc(Cl)c6)cc5)sc4c3)sc2c1S(=O)(=O)O	Fa2N-4 immortalized hepatocytes	–	–	–	–	CC50	> 50 µM
NCCNCCSc1ccccc1	–	ultrafiltration	mouse plasma, female	12.5 µg/mL, 60 min, 37 °C	–	unbound concentration	9770 ± 460 ng/mL
C=CC(=O)Nc1cc(-n2c(=O)ccc3cnc4ccc(-c5cn[nH]c5)cc4c32)ccc1C	Ramos	western blot, item: PARP and caspase-3 cleavage	–	8 h	–	concentration inducing apoptosis	1 µM
NC1CSC2(SC1)C1CC3CC(C1)CC2C3 (stereo not drawn)	MDCK	cytotoxicity	–	–	–	CC50	74.8 ± 1.2 µM
O=C(O)C(O)=CC(=O)c1cc(Oc2ccccc2)cc(Oc2ccccc2)c1	VeroE6-TMPRSS2	–	–	–	–	CC50	> 50 µM
[11CH3]Nc1ccc(C(=O)C2CCN(C3Cc4ccccc4CC3O)CC2)cc1 (single isomer, unassigned)	–	–	Sprague-Dawley rat, cortex	30 min	–	uptake	0.262 %ID/g
C[C@H](CS)C(=O)N[C@H](Cc1c[nH]c2ccccc12)C(=O)O	Klebsiella pneumoniae	–	IMP-1 producing	50 µM, with: meropenem	–	MIC of meropenem	0.125 µg/mL
CC[C@H](C)[C@H](NC(=O)[C@H](CCCNC(=N)N)NC(=O)[C@H](Cc1ccccc1)NC(=O)[C@H](Cc1cnc[nH]1)NC(=O)[C@@H](NC(=O)[C@H](Cc1ccccc1)NC(=O)[C@H](CC(C)C)NC(=O)[C@H](CC(C)C)NC(=O)[C@H](CCC(N)=O)NC(=O)[C@H](CCC(N)=O)NC(=O)[C@H](CC(C)C)NC(C)=O)[C@@H](C)CC)C(=O)NCC(=O)N[C@@H](CCCNC(=N)N)C(=O)N[C@@H](CCCNC(=N)N)C(=O)N[C@@H](CCCNC(=N)N)C(=O)N[C@@H](CCCNC(=N)N)C(=O)N[C@@H](CCCNC(=N)N)C(=O)N[C@@H](CCCNC(=N)N)C(=O)N[C@@H](CCCNC(=N)N)C(=O)N[C@@H](CCCNC(=N)N)C(N)=O	MT4 Luc	cell viability, luciferase signal decrease	–	–	–	cytotoxic concentration	10 µM
CC1(C)CC[C@]2(C(=O)O)CC[C@]3(C)C(=CC[C@@H]4[C@@]5(C)CC[C@H](OC(=O)NCc6ccccc6)C(C)(C)[C@@H]5CC[C@]43C)[C@@H]2C1	–	–	C57BL/6 mice, brain	intraperitoneal, 85 µmol/kg	–	Tmax	4 h
O=C(NC1CCN(c2ncnc3[nH]cnc23)CC1)c1cccc(NS(=O)(=O)c2ccc(Cl)cc2)c1	A549-ACE2	–	–	0.09145 µM	–	viability	103%
COCn1cc(-c2cc([C@@H](C)NC(=O)c3cc(OCCN(C)C)ccc3C)c3ccccc3n2)cn1	Vero E6 cells	–	–	125 µM	–	viability	60.8% and 71.5%
CC(CCN[C@H](CN[C@H](CO)CN1CCC[C@H]1CN[C@H](CN)c1ccccc1)c1ccccc1)c1ccccc1 (stereo partly drawn)	Escherichia coli	bacterial growth	–	8 µM, fold shift of IC90, with: amikacin	–	potentiation of amikacin	1.6 fold
COc1ccc(CN[C@@H]2CO[C@H](C(c3ccccc3)c3ccccc3)C[C@H]2O)cc1	Histamine H4 receptor (HRH4, Homo sapiens, UniProt Q9H3N8)	radioligand binding	–	10 µM, with: [3H]histamine	–	inhibition	-13.7%
COc1ccc(S(=O)(=O)Nc2cccc(C(=O)NC3CCN(c4ncnc5[nH]cnc45)CC3)c2)cc1	A549-ACE2	–	–	0.2743 µM	–	viability	107%

Compound	tested on	assay	system	setting	scale	quantity	result
O=C(Nc1ccccc1OS(=O)(=O)c1ccc(OC(F)(F)F)cc1)c1cnccn1	HEK-293T	MTT	–	100 µM, 24 h	relative to: untreated	viability	82.2 ± 0.89%
NS(=O)(=O)c1ccc(-c2cn(-c3ccc(C(=O)C=C(O)C(=O)O)cc3)nn2)cc1	VeroE6-TMPRSS2	–	–	–	–	CC50	> 50 µM
N=C(N)NCCC[C@H](NC(=O)c1ccccc1)C(=O)N[C@@H](CCCCN)C(=O)N[C@@H](C(N)=O)c1ccc(OCc2ccccc2)cc1	HeLa DENV2 protease reporter	CellTiter-Blue	–	–	–	CC50	> 50 µM
CN1CC[C@]23c4c5ccc(O)c4O[C@H]2c2ncc(-c4ccc(Cl)cc4)cc2C[C@@]3(OCCCc2ccccc2)[C@H]1C5	–	–	CD-1 mouse, chemotherapy-induced neuropathy	10 mg/kg	relative to: morphine 10 mg/kg	time to zero efficacy increase	136%
Cc1ccccc1S(=O)(=O)Nc1cccc(C(=O)NC2CCN(c3ncnc4[nH]cnc34)CC2)c1	A549-ACE2	–	–	200 µM	–	viability	80%
O=C(Nc1ccc(F)cc1)C1C(=O)N(O)C(=O)c2cc([N+](=O)[O-])ccc21 (stereo not drawn)	VeroE6-TMPRSS2	–	–	–	–	CC50	> 50 µM
Cc1ccc(OCCN(C)C)cc1C(=O)N[C@H](C)c1cc(-c2ccn(C)n2)nc2ccccc12	Vero E6 cells	–	–	31.25 µM	–	viability	99.2% and 100%
C[C@@]12C3=C(C(=O)c4occ(c41)[C@@H](O)[C@@H]1O[C@@H]12)[C@@H]1CCC(O)[C@@]1(C)CC3 (stereo partly drawn)	MDA-MB-231	cytotoxicity, SRB	–	72 h	–	EC50	1.69 µM
COc1ccc2c3c([nH]c2c1)[C@H](CC(C)C)N1C(=O)[C@H](CC(=O)OCc2ccccc2)NC(=O)[C@@H]1C3	A549	MTT	–	–	–	CC50	49.9 µM and 46.6 µM and 52.2 µM
O=C(O)C(O)=CC(=O)C1(Cc2ccc(Cl)cc2)CCN(C(=O)C=Cc2ccccc2)CC1	VeroE6-TMPRSS2	–	–	–	–	CC50	> 50 µM
CN1C(=O)CCc2cc(C(=O)NCC=CS(C)(=O)=O)ccc21	MRC-5	cytotoxicity	–	–	–	IC50	> 10 µM
Cc1cc(S(=O)(=O)N(C)CC(=O)Nc2ccc3c(c2)OCCN3C2COC2)c2[nH]c(C#N)cc2c1	mouse bone marrow-derived macrophages, uninfected	–	–	concentration not given	–	cytotoxicity	not toxic
Cc1ccc(S(=O)(=O)Nc2cccc(C(=O)NC3CCN(c4ncnc5[nH]cnc45)CC3)c2)cc1Cl	A549-ACE2	–	–	2.469 µM	–	viability	98.5%
C[C@]12CCC3=C(C(=O)c4occ5c4[C@]3(C)[C@H]3O[C@H]3C5=O)[C@@H]1CCC2=O	MDA-MB-231	cytotoxicity	–	–	–	IC50	0.0091 µM
CC(C)C[C@@H](NC(=O)[C@H](NC(=O)[C@H]1CCCN1)[C@H](C)O)C(=O)N[C@H](Cc1c[nH]cn1)C(=O)N[C@@H](C(=O)N[C@H](Cc1c[nH]cn1)C(=O)N[C@H](CC(N)=O)C(=O)N[C@H](CCCNC(=N)N)C(=O)N[C@H](CCCNC(=N)N)C(=O)N[C@H](CCCNC(=N)N)C(=O)N[C@H](CCCNC(=N)N)C(=O)N[C@H](CCCNC(=N)N)C(N)=O)[C@H](C)O	–	adverse events, phase I single ascending dose	healthy male subjects	36 mg, grade 2	–	incidence of headache	16.7%
O=C(Oc1nsnc1N1CCCCC1)N1CCOCC1	H292	trypan blue exclusion	–	up to 100 µM, 3 h	–	viability	≥ 97%

A few entries again:
Compound	tested on	assay	system	setting	scale	quantity	result
O=C(O)C(O)=CC(=O)c1cc(Oc2ccccc2)cc(Oc2ccccc2)c1	VeroE6-TMPRSS2	–	–	–	–	CC50	> 50 µM
NS(=O)(=O)c1ccc(-c2cn(-c3ccc(C(=O)C=C(O)C(=O)O)cc3)nn2)cc1	VeroE6-TMPRSS2	–	–	–	–	CC50	> 50 µM
